Assay results collected from several papers.
± marks the error that the study gave.

SMILES | test | test system | conditions | tissue uptake [%ID/g]
CCCC[C@H](NC(=O)COCCOCCNC(=O)c1ccc(NN)nc1)C(=O)N[C@H]1CC(=O)NCCCC[C@@H](C(N)=O)NC(=O)[C@H](Cc2c[nH]c3ccccc23)NC(=O)[C@H](CCCNC(=N)N)NC(=O)[C@@H](Cc2ccccc2)NC(=O)[C@H](Cc2c[nH]cn2)NC1=O [technetium-99m labelled] | – | C57 mouse, female, B16/F1 melanoma, skin | intravenous, 0.037 MBq, 2 h | 0.49 ± 0.07
N=C(N)NCCC[C@@H]1NC(=O)[C@H](CC(=O)NC23CNCCNCC(N)(CNCCNC2)CNCCNC3)NC(=O)[C@@H](Cc2ccccc2)NC(=O)[C@H](CC(=O)O)NC(=O)CNC1=O [copper-64 labelled] | – | Nu/Nu mouse, male, tumour-bearing, heart | intravenous, 10 µCi, 4 h | 0.23 ± 0.09
CSCC[C@H](NC(=O)[C@H](CC(C)C)NC(=O)[C@H](Cc1c[nH]cn1)NC(=O)CNC(=O)[C@@H](NC(=O)[C@H](C)NC(=O)[C@H](Cc1c[nH]c2ccccc12)NC(=O)[C@H](CCC(N)=O)NC(=O)[C@H](CC(N)=O)NC(=O)CNC(=O)[C@H](Cc1ccc(O)cc1)NC(=O)[C@H](CCCNC(=N)N)NC(=O)[C@H](CCC(N)=O)NC(=O)[C@@H]1CCCN1C(=O)CN1CCN(CC(=O)O)CCN(CC(=O)O)CCN(CC(=O)O)CC1)C(C)C)C(N)=O [indium-111 labelled] | – | Swiss nu/nu mouse, male, PC-3 tumour xenograft, colon | intravenous, 10 pmol, 4 h | 1.8 ± 0.7
N=C(N)NCCC[C@@H]1NC(=O)[C@H](CCCCNC(=O)CCOCCOCCOCCOCCNC(=O)CC[C@H](NC(=O)CCOCCOCCOCCOCCNC(=O)CC[C@H](NC(=O)CN2CCN(CC(=O)O)CCN(CC(=O)O)CCN(CC(=O)O)CC2)C(=O)NCCOCCOCCOCCOCCC(=O)N[C@@H](CCC(=O)NCCOCCOCCOCCOCCC(=O)NCCCC[C@@H]2NC(=O)[C@@H](Cc3ccccc3)NC(=O)[C@H](CC(=O)O)NC(=O)CNC(=O)[C@H](CCCNC(=N)N)NC2=O)C(=O)NCCOCCOCCOCCOCCC(=O)NCCCC[C@@H]2NC(=O)[C@@H](Cc3ccccc3)NC(=O)[C@H](CC(=O)O)NC(=O)CNC(=O)[C@H](CCCNC(=N)N)NC2=O)C(=O)NCCOCCOCCOCCOCCC(=O)NCCCC[C@@H]2NC(=O)[C@@H](Cc3ccccc3)NC(=O)[C@H](CC(=O)O)NC(=O)CNC(=O)[C@H](CCCNC(=N)N)NC2=O)NC(=O)[C@@H](Cc2ccccc2)NC(=O)[C@H](CC(=O)O)NC(=O)CNC1=O [indium-111 labelled] | – | athymic nude mouse U-87 MG xenograft, intestine | intravenous, 1 h, added: RGD2 co-injected 14 mg/kg | 0.5
CSCC[C@H](NC(=O)[C@H](CC(C)C)NC(=O)[C@H](Cc1c[nH]cn1)NC(=O)CNC(=O)[C@@H](NC(=O)[C@H](C)NC(=O)[C@H](Cc1c[nH]c2ccccc12)NC(=O)[C@H](CCC(N)=O)NC(=O)CCCCCNC(=O)CNC(=O)CNC(=O)CNC(=O)CSC(C)=O)C(C)C)C(N)=O [technetium-99m labelled] | – | nude mouse, PC-3 xenograft, spleen | 30 min | 1.51 ± 0.55
N=C(N)NCCC[C@@H]1NC(=O)[C@H](CCCCNC(=O)CNC(=O)CNC(=O)CNC(=O)CC[C@H](NC(=O)CNC(=O)CNC(=O)CNC(=O)c2ccc(NN=Cc3ccccc3S(=O)(=O)O)nc2)C(=O)NCC(=O)NCC(=O)NCC(=O)NCCCC[C@@H]2NC(=O)[C@@H](Cc3ccccc3)NC(=O)[C@H](CC(=O)O)NC(=O)CNC(=O)[C@H](CCCNC(=N)N)NC2=O)NC(=O)[C@@H](Cc2ccccc2)NC(=O)[C@H](CC(=O)O)NC(=O)CNC1=O [technetium-99m labelled] | – | athymic nu/nu mouse, female, MDA-MB-435 xenograft, muscle | intravenous, 30 min | 2.33 ± 0.61
N=C(N)NCCC[C@@H]1NC(=O)[C@H](CCCCNC(=O)CCC(NC(=S)Nc2ccc(CC3CN(CC(=O)O)CCN(CC(=O)O)CCN(CC(=O)O)CCN3CC(=O)O)cc2)C(=O)NCCCC[C@@H]2NC(=O)[C@@H](Cc3ccc(O)cc3)NC(=O)[C@H](CC(=O)O)NC(=O)CNC(=O)[C@H](CCCNC(=N)N)NC2=O)NC(=O)[C@@H](Cc2ccc(O)cc2)NC(=O)[C@H](CC(=O)O)NC(=O)CNC1=O (stereo partly drawn) [scandium-44 labelled] | PET imaging | female athymic nude mouse, U-87 MG xenograft tumour | intravenous, 5.5 to 7.4 MBq, 2 h | 3.07 ± 1.17
CCCC[C@H](NC(=O)[C@H](Cc1cccs1)NC(=O)[C@H](Cc1c[nH]cn1)NC(=O)CCNC(=O)[C@@H](NC(=O)[C@H](C)NC(=O)[C@H](Cc1c[nH]c2ccccc12)NC(=O)[C@H](CCC(N)=O)NC(=O)[C@H](Cc1cccs1)NC(=O)CN1CCC(NC(=O)CN(CCN(CCN(CC(=O)O)CC(=O)O)CC(=O)O)CC(=O)O)CC1)C(C)C)C(N)=O [indium-111 labelled] | – | Swiss nu/nu mouse, male, PC-3 tumour xenograft, tumour | intravenous, 10 pmol, 4 h | 0.7 ± 0.2
N=C(N)NCCC[C@@H]1NC(=O)[C@H](CCCCNC(=O)CNC(=O)CNC(=O)CNC(=O)c2ccc(NN=Cc3ccccc3S(=O)(=O)O)nc2)NC(=O)[C@@H](Cc2ccccc2)NC(=O)[C@H](CC(=O)O)NC(=O)CNC1=O [technetium-99m labelled] | – | athymic nu/nu mouse, female, U-87 MG glioma xenograft, tumour | intravenous, 2 µCi, 30 min | 6.7 ± 1.59

A few entries again:
SMILES | test | test system | conditions | tissue uptake [%ID/g]
N=C(N)NCCC[C@@H]1NC(=O)[C@H](CCCCNC(=O)CCC(NC(=S)Nc2ccc(CC3CN(CC(=O)O)CCN(CC(=O)O)CCN(CC(=O)O)CCN3CC(=O)O)cc2)C(=O)NCCCC[C@@H]2NC(=O)[C@@H](Cc3ccc(O)cc3)NC(=O)[C@H](CC(=O)O)NC(=O)CNC(=O)[C@H](CCCNC(=N)N)NC2=O)NC(=O)[C@@H](Cc2ccc(O)cc2)NC(=O)[C@H](CC(=O)O)NC(=O)CNC1=O (stereo partly drawn) [scandium-44 labelled] | PET imaging | female athymic nude mouse, U-87 MG xenograft tumour | intravenous, 5.5 to 7.4 MBq, 2 h | 3.07 ± 1.17
